Measurements of several laboratories.
Numbered parts are unrelated; each lists some results of a single study. “And” joins repeats or separate records; there may be more than shown.
Chain of UniProt P24723 (whole entry, looked up): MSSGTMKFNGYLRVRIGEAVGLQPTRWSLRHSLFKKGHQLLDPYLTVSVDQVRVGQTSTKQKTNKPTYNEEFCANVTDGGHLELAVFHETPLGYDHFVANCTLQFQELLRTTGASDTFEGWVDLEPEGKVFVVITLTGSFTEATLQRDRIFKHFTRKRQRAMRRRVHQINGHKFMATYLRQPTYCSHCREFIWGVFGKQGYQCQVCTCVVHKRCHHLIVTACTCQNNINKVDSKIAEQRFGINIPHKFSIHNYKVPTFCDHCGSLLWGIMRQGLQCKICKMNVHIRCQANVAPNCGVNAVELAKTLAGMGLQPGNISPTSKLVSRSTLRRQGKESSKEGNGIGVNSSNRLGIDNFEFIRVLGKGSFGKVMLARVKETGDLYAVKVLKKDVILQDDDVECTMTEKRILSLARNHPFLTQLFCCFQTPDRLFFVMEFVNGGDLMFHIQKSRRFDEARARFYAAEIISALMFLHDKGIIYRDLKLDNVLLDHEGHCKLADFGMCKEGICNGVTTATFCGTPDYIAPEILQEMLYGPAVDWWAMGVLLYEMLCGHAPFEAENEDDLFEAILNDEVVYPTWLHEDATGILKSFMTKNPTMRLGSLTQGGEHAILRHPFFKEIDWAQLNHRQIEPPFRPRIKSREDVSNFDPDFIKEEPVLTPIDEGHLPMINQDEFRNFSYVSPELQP
Chain of UniProt P10721 (whole entry, unmodified, looked up): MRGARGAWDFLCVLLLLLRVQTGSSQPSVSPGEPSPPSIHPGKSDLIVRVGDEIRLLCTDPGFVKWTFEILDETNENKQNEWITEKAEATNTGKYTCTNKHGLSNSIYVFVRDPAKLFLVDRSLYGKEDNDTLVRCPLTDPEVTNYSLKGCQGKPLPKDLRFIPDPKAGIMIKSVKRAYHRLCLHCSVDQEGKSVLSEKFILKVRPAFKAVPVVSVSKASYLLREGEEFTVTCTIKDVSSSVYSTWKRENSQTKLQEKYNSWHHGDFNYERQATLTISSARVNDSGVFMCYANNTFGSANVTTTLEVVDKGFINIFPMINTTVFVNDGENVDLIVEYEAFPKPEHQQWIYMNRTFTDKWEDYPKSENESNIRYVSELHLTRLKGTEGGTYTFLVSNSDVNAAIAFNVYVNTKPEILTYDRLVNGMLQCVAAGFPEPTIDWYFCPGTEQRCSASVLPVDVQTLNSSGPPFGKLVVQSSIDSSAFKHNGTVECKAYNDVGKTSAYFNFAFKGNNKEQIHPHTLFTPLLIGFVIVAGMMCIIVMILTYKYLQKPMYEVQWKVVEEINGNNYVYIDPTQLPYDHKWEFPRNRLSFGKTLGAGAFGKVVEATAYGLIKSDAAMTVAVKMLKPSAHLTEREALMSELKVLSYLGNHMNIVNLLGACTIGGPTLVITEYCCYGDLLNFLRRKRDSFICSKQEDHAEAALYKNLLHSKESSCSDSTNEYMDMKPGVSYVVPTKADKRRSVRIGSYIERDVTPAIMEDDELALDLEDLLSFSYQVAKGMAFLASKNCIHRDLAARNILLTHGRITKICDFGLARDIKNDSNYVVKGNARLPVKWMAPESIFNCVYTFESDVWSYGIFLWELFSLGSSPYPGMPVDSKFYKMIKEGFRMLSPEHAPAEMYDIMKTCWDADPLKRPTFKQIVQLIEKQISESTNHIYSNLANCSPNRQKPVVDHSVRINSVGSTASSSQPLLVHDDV
Chain of UniProt O14936 (whole entry, looked up): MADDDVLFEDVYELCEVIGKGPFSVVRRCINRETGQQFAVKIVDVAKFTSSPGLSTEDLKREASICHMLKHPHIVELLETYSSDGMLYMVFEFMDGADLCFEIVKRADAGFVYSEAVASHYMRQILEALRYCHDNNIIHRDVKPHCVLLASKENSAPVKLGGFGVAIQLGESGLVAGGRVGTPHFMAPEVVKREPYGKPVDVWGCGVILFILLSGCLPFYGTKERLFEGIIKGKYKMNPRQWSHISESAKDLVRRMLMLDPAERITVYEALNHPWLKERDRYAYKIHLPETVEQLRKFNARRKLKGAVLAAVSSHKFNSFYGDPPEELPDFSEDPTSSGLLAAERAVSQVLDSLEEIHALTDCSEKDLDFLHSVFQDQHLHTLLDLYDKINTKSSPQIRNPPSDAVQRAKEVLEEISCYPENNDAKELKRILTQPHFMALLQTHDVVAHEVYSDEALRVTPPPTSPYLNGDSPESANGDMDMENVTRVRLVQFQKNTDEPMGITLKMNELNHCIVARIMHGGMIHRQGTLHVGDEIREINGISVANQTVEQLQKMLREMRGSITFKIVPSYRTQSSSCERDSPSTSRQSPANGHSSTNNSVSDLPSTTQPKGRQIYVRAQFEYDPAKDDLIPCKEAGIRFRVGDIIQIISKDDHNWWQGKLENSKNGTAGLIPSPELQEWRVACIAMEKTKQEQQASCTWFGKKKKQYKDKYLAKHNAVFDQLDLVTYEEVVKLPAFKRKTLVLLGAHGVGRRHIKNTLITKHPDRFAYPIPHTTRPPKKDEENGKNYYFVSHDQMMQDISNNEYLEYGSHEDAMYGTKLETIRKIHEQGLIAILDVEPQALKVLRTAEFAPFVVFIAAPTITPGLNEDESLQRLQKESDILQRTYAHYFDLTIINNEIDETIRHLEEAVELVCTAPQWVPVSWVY
Chain of UniProt Q8N568 (whole entry, looked up): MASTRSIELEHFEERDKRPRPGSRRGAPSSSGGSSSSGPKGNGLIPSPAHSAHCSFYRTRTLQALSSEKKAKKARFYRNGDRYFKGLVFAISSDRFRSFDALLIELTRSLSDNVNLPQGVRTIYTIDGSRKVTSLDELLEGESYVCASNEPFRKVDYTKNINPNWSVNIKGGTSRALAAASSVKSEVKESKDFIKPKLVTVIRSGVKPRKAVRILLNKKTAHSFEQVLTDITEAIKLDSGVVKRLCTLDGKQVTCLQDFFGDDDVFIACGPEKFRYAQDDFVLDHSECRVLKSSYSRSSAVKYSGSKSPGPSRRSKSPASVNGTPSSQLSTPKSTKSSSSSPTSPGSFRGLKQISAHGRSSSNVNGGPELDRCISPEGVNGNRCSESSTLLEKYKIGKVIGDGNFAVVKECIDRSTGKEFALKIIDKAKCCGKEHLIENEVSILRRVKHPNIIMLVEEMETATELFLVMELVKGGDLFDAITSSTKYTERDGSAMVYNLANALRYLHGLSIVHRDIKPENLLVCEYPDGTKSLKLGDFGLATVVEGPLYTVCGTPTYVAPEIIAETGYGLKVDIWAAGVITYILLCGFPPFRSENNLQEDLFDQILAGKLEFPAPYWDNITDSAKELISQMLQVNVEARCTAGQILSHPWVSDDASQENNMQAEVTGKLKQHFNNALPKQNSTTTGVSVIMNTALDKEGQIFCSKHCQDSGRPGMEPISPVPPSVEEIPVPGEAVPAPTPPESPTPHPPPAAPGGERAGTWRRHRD
Chain of UniProt P29322 (whole entry, looked up): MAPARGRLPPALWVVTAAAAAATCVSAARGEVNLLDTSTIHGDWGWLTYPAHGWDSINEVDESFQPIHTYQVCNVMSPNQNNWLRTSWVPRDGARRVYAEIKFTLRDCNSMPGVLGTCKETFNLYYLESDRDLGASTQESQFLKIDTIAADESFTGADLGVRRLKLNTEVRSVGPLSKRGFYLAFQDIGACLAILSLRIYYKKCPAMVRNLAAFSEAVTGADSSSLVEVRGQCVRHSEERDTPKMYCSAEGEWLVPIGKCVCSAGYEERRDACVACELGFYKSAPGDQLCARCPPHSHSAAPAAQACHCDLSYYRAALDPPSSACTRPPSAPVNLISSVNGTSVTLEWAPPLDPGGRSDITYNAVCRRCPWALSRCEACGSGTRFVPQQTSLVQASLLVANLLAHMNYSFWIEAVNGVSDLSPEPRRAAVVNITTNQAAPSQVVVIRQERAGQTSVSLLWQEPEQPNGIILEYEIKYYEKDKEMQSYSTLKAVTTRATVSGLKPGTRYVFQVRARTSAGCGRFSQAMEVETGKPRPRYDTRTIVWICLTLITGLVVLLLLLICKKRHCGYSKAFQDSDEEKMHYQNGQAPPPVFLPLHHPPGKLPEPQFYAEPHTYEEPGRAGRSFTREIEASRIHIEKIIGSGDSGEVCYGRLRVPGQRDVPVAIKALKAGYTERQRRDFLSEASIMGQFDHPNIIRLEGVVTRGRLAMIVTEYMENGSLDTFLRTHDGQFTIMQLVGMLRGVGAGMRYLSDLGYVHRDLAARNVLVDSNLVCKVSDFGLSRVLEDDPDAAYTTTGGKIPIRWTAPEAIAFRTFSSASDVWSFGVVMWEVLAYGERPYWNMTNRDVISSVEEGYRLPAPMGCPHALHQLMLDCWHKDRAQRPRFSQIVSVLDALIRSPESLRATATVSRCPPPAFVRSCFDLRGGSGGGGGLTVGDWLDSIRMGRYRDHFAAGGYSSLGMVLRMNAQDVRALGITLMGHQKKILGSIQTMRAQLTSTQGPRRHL

Study 1 — effect on: binding; tested at: 1 µM
SMILES: Cc1ccc(NC(=O)c2ccnc(C(F)(F)F)c2)cc1-c1cc(OCCO)nc(N2CCOCC2)c1
It gave 90% for remaining binding (Megakaryocyte-associated tyrosine-protein kinase (MATK, Homo sapiens, UniProt P42679)).
For Serine/threonine-protein kinase DCLK2 (DCLK2, Homo sapiens, UniProt Q8N568): remaining binding read 100%.
It gave 93% for remaining binding (Cytoplasmic tyrosine-protein kinase BMX (BMX, Homo sapiens, UniProt P51813); competition with immobilised ligand).
The remaining binding was 92% (Ephrin type-A receptor 8 (EPHA8, Homo sapiens, UniProt P29322); competition with immobilised ligand).
For Mast/stem cell growth factor receptor Kit (KIT, Homo sapiens, UniProt P10721, L576P): remaining binding read 100%.
Activated CDC42 kinase 1 (TNK2, Homo sapiens, UniProt Q07912); competition with immobilised ligand — remaining binding: 86%.

Study 2 — effect on: enzyme activity; action: inhibitor; tested at: 0.5 µM; baseline: control
Target: RAC-gamma serine/threonine-protein kinase (AKT3, Homo sapiens, UniProt Q9Y243)
Chain of UniProt Q9Y243 (whole entry, looked up): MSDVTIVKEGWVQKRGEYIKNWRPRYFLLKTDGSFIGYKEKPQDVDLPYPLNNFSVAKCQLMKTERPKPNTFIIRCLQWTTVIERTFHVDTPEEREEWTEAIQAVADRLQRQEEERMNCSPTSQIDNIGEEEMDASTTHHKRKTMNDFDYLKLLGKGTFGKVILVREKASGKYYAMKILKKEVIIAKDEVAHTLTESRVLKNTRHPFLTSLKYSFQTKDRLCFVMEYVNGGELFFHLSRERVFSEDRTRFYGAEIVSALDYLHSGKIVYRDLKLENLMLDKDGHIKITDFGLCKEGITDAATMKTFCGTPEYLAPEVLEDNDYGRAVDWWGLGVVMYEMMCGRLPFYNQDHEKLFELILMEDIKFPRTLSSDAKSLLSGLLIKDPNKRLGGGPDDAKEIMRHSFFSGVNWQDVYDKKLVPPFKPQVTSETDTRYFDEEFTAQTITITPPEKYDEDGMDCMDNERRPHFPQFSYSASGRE
`COc1cc2ncnc(Nc3ccc(F)c(Cl)c3)c2cc1OCCCN1CCOCC1` has a remaining activity of 84.6%.
`COc1ccc(C(=O)Nc2sc3c(c2C(N)=O)CCCC3)cc1OC` has a remaining activity of 102%.
`Cn1c2ccccc2c2c3c(c4c5ccccc5n(CCC#N)c4c21)CNC3=O` gave a remaining activity of 85.3%.
With `O=S(=O)(c1cccc2cnccc12)N1CCCNCC1` the remaining activity was 94.1%.
The remaining activity of `Nc1[nH]nc2nc3ccccc3nc12` is reported as 95.3%.
For `Oc1ccc(-c2nc(-c3ccncc3)c(-c3ccc(F)cc3)[nH]2)cc1`, the remaining activity was 98.4%.
With `N#CC(C#N)=C(N)/C(C#N)=C/c1ccc(O)cc1` the remaining activity was 95.8%.
The remaining activity of `CCOC(=O)c1c(C)[nH]c(/C=C2\C(=O)Nc3ccccc32)c1C` is reported as 103%.
For `O=c1c2ccccc2[nH]c(=S)n1CCN1CCC(=C(c2ccc(F)cc2)c2ccc(F)cc2)CC1`, the remaining activity was 99.4%.
`CNC(=O)c1cc(Oc2ccc(NC(=O)Nc3ccc(Cl)c(C(F)(F)F)c3)cc2)ccn1` has a remaining activity of 94.2%.
`COc1cc2nccc(Oc3ccc(NC(=S)NC(=O)c4ccccc4C)cc3)c2cc1OC` has a remaining activity of 95.9%.
`CN(C)c1ccc(C=C2C(=O)Nc3ccccc32)cc1` has a remaining activity of 103%.
The remaining activity of `Nc1ncnc2n[nH]c(Nc3ccc(F)cc3)c12` is reported as 104%.
With `O=C(O)c1ccc2c3c1cccc3c(=O)n1c3ccccc3nc21` the remaining activity was 104%.

Study 3 — effect on: cell-free assay; method: competition with immobilised ligand; tested at: 1 µM
SMILES: O=C(Nc1cccnn1)N1CC(C/C=C/c2cncc(Oc3ccc(C(F)(F)F)cn3)n2)C1
It gave 100% for remaining binding (RAC-gamma serine/threonine-protein kinase (AKT3, Homo sapiens, UniProt Q9Y243)).
The remaining binding was 88% (Dual specificity mitogen-activated protein kinase kinase 5 (MAP2K5, Homo sapiens, UniProt Q13163)).
For Peripheral plasma membrane protein CASK (CASK, Homo sapiens, UniProt O14936): remaining binding read 64%.
Protein kinase C eta type (PRKCH, Homo sapiens, UniProt P24723) — remaining binding: 100%.

Study 4 — cell line: mouse MPNST tumor cells; method: high-content nuclear imaging; item: cell number; tested at: 10 µM; time: 12 h; setting: mean of 2 replicates; baseline: plate mean; reading: higher = more cells
For `CCS(=O)(=O)N(C)[C@H]1c2cc(C#N)ccc2OC(C)(C)[C@@H]1O` (racemic), the nuclei count was -0.315 z-score.
For `OCCN1CCN(CCCN2c3ccccc3C=Cc3ccccc32)CC1`, the nuclei count was 1.57 z-score.
`NC(=O)NO` gave a nuclei count of -0.362 z-score.
With `CC(CN(C)C)C(C)(O)Cc1ccc(Cl)cc1` (stereo not shown) the nuclei count was 3.22 z-score.
`COCCCOc1cc(C[C@@H](C[C@H](N)[C@@H](O)C[C@H](C(=O)NCC(C)(C)C(N)=O)C(C)C)C(C)C)ccc1OC` gave a nuclei count of 1.38 z-score and 0.432 z-score and 1.01 z-score.
With `CCOc1ccc(-c2nc(-c3cccc4c3CCC4NCCO)no2)cc1OCC` (stereo not shown) the nuclei count was -5.74 z-score.
With `CN(C)/N=N/c1[nH]cnc1C(N)=O` the nuclei count was 0.153 z-score.

Excerpt of the above (study 2):
For `O=c1c2ccccc2[nH]c(=S)n1CCN1CCC(=C(c2ccc(F)cc2)c2ccc(F)cc2)CC1`, the remaining activity was 99.4%.
`CNC(=O)c1cc(Oc2ccc(NC(=O)Nc3ccc(Cl)c(C(F)(F)F)c3)cc2)ccn1` has a remaining activity of 94.2%.
